Measured values of several laboratories.
Parts stem from different laboratories: compare values within a part only. Changes are numbered by the printed parent chain.

Block 1 — method: RNAcompete; form: RNA; matrix: in vitro; tested at: 20 nM; notes: 7-mer, probes averaged, single round; reference: mean of 7-mers; reading: higher = stronger binding
Target: PABPC1L2, full length, GST fusion (mouse, UniProt A0ABA7IW68)
Construct (chain): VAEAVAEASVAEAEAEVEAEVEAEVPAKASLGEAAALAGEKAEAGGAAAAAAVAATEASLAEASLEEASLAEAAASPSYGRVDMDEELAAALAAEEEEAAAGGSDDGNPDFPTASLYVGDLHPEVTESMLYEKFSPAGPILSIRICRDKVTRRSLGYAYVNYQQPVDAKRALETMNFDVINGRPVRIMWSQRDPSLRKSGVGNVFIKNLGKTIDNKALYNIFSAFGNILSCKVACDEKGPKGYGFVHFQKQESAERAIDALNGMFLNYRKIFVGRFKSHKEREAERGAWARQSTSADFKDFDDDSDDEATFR
Strand	7-mer Z-score
UGGCACC	-0.0953
UACGUGG	0.00979
UCUAAUC	-0.248
CGCCAUC	-0.353
UGGCUGU	-0.179
AAGAAGC	0.546
CUUGCGA	-0.219

Block 2 — target: CCNF, cyclin fold, Cln2 fusion (human); method: yeast growth competition, sequencing; matrix: yeast; notes: strong parent motif; reference: not given; reading: higher = stronger binding
Parent: RBL1 docking peptide (human); GSAKRRLFGEDPP
Change	normalised enrichment score
G1E	7.14
P12G	6.48
F8N	0.938
L7M	1.01
D11A	7.1
R5E	-0.152

Block 3 — method: protein-binding microarray; form: double-stranded DNA, one strand shown; matrix: in vitro; tested at: 2200 nM top; notes: 60-bp whole probe; added: salmon DNA 0.4 mg/ml; reference: random background probes; reading: higher = stronger binding; shared flanks, not repeated: GCCTAGCAC … GTCTTGATTCGCTTGACGCTGCTG
Target: Interferon regulatory factor 7, full length, phosphomimetic (IRF7, Homo sapiens, UniProt Q92985, residues 1-503, S471D/S472D/S475D/S476D/S477D/S483D/S484D/S487D)
Target sequence (chain): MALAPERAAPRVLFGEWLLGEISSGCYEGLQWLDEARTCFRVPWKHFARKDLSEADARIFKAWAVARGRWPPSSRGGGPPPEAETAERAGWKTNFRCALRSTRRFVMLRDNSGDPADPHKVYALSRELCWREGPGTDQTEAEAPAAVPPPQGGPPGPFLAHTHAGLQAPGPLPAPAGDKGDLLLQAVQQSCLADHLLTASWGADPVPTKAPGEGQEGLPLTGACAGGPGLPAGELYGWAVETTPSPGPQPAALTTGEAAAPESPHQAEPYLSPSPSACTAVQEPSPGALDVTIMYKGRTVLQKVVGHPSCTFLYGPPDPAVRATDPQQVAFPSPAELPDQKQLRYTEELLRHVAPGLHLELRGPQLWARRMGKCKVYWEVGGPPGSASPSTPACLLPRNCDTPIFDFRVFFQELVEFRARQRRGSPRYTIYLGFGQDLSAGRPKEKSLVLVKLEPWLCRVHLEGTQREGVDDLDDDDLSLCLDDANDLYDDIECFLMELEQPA
Strand	fitted relative affinity [z-score]
TTAGGTATCCTTATCCTATAGTGCTAG	0.88
ACCCATCTCAAGTAGCCTAGCGTGCTA	0.344
TTAAGTATCGGTCTCGGTTAGTGCTAG	0.811
TTAGGTATCGGTTTCGGTGAGTGCTAG	3.61
TCACCTCTAGGTCTTCTACTGTGCTAG	1.04
CACGAACTGAGTCTCGAGACGTGCTAG	0.203
GATAATTTTTTTCTAAGTAAGTGCTAG	-0.226

Single results of other studies
Molecule	target	test	system	conditions	how to read	measurement	value
PhoQ, residues 284 288 289 292 302 303 GASLAW	PhoP, residues 12 14 15 18 19 LHSVQ (Escherichia coli, UniProt P23836)	Sort-seq, refers to: YFP reporter	E. coli	PhoQ-PhoP variant library, added: 10 µM Mg2+	reference: high Mg2+ state, higher = stronger signaling	fold induction	4.59

A few entries again (block 1):
Strand	7-mer Z-score
UACGUGG	0.00979
CGCCAUC	-0.353
AAGAAGC	0.546
